Measured values pooled from the literature.
Every numbered part comes from another study and shows a few of its results, in no order.
UniProt Q13976, sequence (whole entry, looked up): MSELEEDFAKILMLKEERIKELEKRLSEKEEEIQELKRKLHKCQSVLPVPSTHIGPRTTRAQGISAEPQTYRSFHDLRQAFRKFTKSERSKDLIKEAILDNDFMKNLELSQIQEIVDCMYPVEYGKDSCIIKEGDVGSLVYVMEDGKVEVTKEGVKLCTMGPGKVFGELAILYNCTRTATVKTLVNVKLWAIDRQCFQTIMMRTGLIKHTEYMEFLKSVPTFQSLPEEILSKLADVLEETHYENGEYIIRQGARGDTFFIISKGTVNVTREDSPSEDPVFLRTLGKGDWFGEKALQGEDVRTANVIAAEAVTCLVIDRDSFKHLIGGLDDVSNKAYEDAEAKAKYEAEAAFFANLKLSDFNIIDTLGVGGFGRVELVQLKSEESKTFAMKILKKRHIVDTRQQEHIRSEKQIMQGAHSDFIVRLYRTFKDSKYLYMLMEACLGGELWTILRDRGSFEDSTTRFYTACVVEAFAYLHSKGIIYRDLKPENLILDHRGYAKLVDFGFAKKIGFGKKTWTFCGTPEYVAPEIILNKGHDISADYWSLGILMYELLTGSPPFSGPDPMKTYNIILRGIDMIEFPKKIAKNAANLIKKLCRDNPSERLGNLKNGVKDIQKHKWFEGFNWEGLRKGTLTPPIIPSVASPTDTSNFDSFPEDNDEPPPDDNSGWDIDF
UniProt Q13464, sequence (whole entry, looked up): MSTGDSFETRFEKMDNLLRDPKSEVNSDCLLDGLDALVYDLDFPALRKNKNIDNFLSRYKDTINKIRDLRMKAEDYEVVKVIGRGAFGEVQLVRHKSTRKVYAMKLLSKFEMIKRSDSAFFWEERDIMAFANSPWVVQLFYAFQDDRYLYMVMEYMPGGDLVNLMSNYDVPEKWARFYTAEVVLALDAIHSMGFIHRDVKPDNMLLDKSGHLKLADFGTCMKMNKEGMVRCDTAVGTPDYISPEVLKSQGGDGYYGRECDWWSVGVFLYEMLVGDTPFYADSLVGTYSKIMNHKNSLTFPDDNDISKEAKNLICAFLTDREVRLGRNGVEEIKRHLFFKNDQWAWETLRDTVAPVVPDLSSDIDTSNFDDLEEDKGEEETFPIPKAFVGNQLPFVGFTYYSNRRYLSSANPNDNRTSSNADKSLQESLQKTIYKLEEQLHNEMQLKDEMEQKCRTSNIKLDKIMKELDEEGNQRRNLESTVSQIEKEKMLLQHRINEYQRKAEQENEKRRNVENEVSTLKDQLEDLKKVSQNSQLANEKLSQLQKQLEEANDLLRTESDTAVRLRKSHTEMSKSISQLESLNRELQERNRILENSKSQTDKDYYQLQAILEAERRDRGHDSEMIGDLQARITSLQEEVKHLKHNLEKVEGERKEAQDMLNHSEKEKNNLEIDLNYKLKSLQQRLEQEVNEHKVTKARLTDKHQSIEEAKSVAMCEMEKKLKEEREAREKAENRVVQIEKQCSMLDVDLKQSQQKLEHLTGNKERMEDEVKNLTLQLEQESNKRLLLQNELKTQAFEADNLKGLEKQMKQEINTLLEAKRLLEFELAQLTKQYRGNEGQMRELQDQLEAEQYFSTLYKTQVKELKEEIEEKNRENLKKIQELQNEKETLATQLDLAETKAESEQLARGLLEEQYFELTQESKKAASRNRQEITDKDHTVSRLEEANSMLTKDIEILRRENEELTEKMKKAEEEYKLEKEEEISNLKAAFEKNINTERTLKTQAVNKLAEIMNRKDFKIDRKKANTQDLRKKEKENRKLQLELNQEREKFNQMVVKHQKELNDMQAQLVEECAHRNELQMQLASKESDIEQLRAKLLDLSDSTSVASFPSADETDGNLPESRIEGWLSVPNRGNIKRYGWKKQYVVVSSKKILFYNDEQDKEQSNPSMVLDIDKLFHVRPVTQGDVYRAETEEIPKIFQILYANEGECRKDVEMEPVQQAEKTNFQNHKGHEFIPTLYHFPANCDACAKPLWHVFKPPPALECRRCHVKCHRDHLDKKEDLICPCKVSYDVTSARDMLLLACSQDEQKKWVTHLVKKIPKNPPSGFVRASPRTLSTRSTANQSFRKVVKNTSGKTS
UniProt Q9H2X6, sequence (whole entry, looked up): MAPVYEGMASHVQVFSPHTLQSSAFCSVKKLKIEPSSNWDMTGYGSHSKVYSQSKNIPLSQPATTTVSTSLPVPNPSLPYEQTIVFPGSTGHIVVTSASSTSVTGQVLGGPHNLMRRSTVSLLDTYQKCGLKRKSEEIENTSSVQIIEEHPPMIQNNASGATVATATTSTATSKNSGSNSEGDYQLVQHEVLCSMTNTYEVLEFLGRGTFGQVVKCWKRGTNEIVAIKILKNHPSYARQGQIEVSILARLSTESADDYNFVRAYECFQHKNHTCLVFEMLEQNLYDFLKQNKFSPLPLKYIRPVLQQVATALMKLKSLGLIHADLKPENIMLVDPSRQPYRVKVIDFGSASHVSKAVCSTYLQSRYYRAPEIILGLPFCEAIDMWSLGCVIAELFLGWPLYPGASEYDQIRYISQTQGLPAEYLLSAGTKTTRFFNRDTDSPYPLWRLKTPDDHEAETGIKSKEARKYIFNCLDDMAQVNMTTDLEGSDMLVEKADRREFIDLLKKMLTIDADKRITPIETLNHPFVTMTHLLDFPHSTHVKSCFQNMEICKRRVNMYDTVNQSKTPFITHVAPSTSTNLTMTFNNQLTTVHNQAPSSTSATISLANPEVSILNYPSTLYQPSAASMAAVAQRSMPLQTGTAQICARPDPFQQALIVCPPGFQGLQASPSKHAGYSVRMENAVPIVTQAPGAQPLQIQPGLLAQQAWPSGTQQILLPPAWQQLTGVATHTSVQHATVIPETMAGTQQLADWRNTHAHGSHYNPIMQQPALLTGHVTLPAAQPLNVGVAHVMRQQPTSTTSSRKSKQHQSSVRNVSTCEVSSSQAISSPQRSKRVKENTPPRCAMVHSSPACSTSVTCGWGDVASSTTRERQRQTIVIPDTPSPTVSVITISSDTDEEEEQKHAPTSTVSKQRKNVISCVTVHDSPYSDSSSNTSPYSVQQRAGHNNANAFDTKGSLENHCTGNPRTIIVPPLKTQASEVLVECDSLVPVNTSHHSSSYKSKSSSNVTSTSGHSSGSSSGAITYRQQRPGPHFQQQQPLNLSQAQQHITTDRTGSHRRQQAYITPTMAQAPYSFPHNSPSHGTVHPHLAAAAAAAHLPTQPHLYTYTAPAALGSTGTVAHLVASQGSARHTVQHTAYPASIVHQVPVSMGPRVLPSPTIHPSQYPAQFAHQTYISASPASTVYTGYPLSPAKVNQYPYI
UniProt Q16584, sequence (whole entry, looked up): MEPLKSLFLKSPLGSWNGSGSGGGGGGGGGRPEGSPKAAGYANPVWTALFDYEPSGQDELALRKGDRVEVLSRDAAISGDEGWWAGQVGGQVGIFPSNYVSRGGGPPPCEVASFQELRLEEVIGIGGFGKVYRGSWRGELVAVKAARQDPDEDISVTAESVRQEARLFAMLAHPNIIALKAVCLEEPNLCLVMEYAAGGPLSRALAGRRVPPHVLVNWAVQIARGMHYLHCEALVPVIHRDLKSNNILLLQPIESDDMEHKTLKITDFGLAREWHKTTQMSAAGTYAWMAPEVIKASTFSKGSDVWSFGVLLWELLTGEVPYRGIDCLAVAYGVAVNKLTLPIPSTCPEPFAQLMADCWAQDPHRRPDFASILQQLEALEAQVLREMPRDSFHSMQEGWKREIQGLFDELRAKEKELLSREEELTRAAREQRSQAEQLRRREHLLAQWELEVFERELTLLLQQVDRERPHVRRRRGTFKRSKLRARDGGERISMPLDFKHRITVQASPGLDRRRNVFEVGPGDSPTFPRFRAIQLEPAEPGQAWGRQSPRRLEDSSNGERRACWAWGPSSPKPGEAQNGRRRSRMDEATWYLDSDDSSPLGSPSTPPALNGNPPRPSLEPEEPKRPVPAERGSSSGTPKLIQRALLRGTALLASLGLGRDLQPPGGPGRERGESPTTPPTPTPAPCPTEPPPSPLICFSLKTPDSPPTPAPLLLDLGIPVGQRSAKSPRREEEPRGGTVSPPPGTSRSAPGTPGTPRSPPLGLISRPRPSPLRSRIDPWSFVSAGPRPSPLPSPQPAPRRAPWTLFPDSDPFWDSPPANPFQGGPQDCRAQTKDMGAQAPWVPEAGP

Study 1 — method: competition with immobilised ligand; tested at: 1 µM
Structure (SMILES): Cc1noc([C@H]2C[C@@H](c3ccc(C(F)(F)F)cc3)CN(C(=O)N3CCS(=O)(=O)C3)C2)n1
target	assay	remaining binding
NUAK family SNF1-like kinase 1 (NUAK1, Homo sapiens, UniProt O60285)	cell-free assay	100%
Serine/threonine-protein kinase TAO1 (TAOK1, Homo sapiens, UniProt Q7L7X3)	cell-free assay	100%
Mitogen-activated protein kinase kinase kinase 11 (MAP3K11, Homo sapiens, UniProt Q16584)	cell-free assay	86%
cGMP-dependent protein kinase 1 (PRKG1, Homo sapiens, UniProt Q13976)	cell-free assay	100%
Platelet-derived growth factor receptor alpha (PDGFRA, Homo sapiens, UniProt P16234)	cell-free assay	100%
Muscle, skeletal receptor tyrosine-protein kinase (MUSK, Homo sapiens, UniProt O15146)	cell-free assay	100%
Homeodomain-interacting protein kinase 2 (HIPK2, Homo sapiens, UniProt Q9H2X6)	cell-free assay	100%
Cyclin-dependent kinase-like 5 (CDKL5, Homo sapiens, UniProt O76039)	binding	100%
SRSF protein kinase 2 (SRPK2, Homo sapiens, UniProt P78362)	cell-free assay	100%
Rho-associated protein kinase 1 (ROCK1, Homo sapiens, UniProt Q13464)	cell-free assay	100%
Phosphatidylinositol 5-phosphate 4-kinase type-2 gamma (PIP4K2C, Homo sapiens, UniProt Q8TBX8)	cell-free assay	89%
Serine/threonine-protein kinase N1 (PKN1, Homo sapiens, UniProt Q16512)	cell-free assay	100%
Serine/threonine-protein kinase tousled-like 2 (TLK2, Homo sapiens, UniProt Q86UE8)	cell-free assay	100%
Fibroblast growth factor receptor 4 (FGFR4, Homo sapiens, UniProt P22455)	cell-free assay	100%
TGF-beta receptor type-1 (TGFBR1, Homo sapiens, UniProt P36897)	cell-free assay	100%
Phosphatidylinositol 4,5-bisphosphate 3-kinase catalytic subunit alpha isoform (PIK3CA, Homo sapiens, UniProt P42336, I800L)	cell-free assay	100%
Receptor-type tyrosine-protein kinase FLT3 (FLT3, Homo sapiens, UniProt P36888, F691L/ITD)	cell-free assay	100%

Study 2 — read-out: enzyme activity; mode: inhibitor; tested at: 0.5 µM; reference: control
Target: cAMP-dependent protein kinase catalytic subunit PRKX (PRKX, Homo sapiens, UniProt P51817)
Target sequence (P51817 1-358): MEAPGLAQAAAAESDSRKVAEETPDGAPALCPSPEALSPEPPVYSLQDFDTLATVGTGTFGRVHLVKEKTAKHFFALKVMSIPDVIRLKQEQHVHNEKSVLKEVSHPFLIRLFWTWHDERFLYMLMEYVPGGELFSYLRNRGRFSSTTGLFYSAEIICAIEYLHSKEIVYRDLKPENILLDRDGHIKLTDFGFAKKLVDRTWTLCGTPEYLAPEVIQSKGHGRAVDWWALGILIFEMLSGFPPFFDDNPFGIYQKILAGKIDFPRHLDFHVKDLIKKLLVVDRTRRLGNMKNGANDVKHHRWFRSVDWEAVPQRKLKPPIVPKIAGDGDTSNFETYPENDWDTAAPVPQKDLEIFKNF
Structure (SMILES)	remaining activity [%]
O=C1NC(=O)C(c2cn(CCCO)c3ncccc23)=C1c1cnccn1	106
O=C(O)c1ccc2c3c1cccc3c(=O)n1c3ccccc3nc21	93.7
CCOC(=O)c1c(C)[nH]c(/C=C2\C(=O)Nc3ccccc32)c1C	94.8
CNC(=O)c1cc(Oc2ccc(NC(=O)Nc3ccc(Cl)c(C(F)(F)F)c3)cc2)ccn1	97.7
CO[C@H]1C[C@@H]2CC[C@@H](C)[C@@](O)(O2)C(=O)C(=O)N2CCCC[C@H]2C(=O)O[C@H]([C@H](C)C[C@@H]2CC[C@@H](O)[C@H](OC)C2)CC(=O)[C@H](C)/C=C(\C)[C@@H](O)[C@@H](OC)C(=O)[C@H](C)C[C@H](C)/C=C/C=C/C=C/1C	95.6
O=C1NC(=O)C(c2cn(CCCn3ccnc3)c3ccccc23)=C1Nc1ccccc1	95.5
Cc1cccc(-c2[nH]c(C(C)(C)C)nc2-c2ccc3c(c2)OCO3)n1	95
Cc1ccc(Nc2nccc(N(C)c3ccc4c(C)n(C)nc4c3)n2)cc1S(N)(=O)=O	101
NCCNc1ncc(C(N)=O)c(Nc2cccc(C(F)(F)F)c2)n1	90.5
OCC(O)CCON=C1C(c2c(O)[nH]c3ccccc23)=Nc2ccccc21 (stereo not drawn)	84.2
CN(C)c1ccc(C=C2C(=O)Nc3ccccc32)cc1	104
Cn1sc(=O)n(Cc2ccccc2)c1=O	102
Nc1ccc2ncnc(NCCc3ccc(Oc4ccccc4)cc3)c2c1	104
COc1cc2nccc(Oc3ccc(NC(=S)NC(=O)c4ccccc4C)cc3)c2cc1OC	100
COc1cc2ncnc(Nc3ccc(Oc4ccccc4)cc3)c2cc1OC	95.2

Study 3 — method: protein-binding microarray; form: double-stranded DNA, one strand shown; medium: in vitro; tested at: not given; direction: higher = stronger binding
Target: Protein C-ets-1 (ETS1, Homo sapiens, UniProt P14921, residues 1-441, K379A, full length assumed)
UniProt P14921, sequence (whole entry, unmodified, looked up): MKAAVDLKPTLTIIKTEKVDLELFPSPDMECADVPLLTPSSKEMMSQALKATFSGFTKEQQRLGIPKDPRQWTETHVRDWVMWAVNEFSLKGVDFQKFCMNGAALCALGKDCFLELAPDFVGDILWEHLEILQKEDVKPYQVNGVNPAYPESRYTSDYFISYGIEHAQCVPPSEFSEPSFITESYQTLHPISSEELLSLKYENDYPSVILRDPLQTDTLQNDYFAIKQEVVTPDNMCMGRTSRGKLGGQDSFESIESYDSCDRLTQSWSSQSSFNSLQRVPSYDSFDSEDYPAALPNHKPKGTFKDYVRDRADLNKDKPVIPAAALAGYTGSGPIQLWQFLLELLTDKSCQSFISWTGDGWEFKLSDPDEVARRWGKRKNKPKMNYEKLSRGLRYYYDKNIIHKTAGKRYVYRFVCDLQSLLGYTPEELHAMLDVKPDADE
Setting: k-mer, scored over probes, only values ≥0.25
Oligonucleotide	E-score
CCGGGCAA	0.279
TGCCGGAA	0.359
CCGGGGTC	0.297
GTCGGTCA	0.27
ATACATCG	0.299
GTTGTCTA	0.252
TAATATGA	0.274
TCTGTACA	0.256

Study 4 — method: RNA Bind-n-Seq; form: RNA; medium: in vitro; tested at: 200 nM; setting: whole 134-nt RNA, ends assumed; with: 150 mM KCl; reference: input library; direction: higher = stronger binding
Target: Ras GTPase-activating protein-binding protein 1, full length (G3BP1, Homo sapiens, UniProt Q13283)
UniProt Q13283, sequence (whole entry, looked up): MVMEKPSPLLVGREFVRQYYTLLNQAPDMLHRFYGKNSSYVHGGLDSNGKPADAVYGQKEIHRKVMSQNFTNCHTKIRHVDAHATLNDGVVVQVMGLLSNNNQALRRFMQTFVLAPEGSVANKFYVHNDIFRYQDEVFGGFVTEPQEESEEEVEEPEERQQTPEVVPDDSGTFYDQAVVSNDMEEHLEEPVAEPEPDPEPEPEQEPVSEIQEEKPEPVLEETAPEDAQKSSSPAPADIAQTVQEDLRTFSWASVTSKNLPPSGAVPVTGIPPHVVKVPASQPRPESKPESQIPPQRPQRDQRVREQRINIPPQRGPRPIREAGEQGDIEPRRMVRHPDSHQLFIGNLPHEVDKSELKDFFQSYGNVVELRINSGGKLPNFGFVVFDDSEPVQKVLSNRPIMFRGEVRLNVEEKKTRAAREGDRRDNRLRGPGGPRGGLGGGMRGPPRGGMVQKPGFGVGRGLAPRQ
Oligonucleotide	log2 enrichment
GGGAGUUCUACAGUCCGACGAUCCACAGACAACACGCACCCACACAGACACAGAGGGAAGGGGUUGGGAUGGGGACAGGAAACACAGCAGGGCGGGGUAGGACCCCAGCCCCUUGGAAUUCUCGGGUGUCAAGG	1.81
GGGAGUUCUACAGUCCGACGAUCGCAGGAAGUAAAAACAAAUGGAAAUGCUUCGGAUAGUGGCAUGGGUGGGGGUUGCUAAGGAAAGGGUGGGAUGGGAGUGGGUAAAGAGUUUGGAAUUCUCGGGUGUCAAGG	0.762
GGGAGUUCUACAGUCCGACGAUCGUCCUGUGCUACACAUCGUAUGUACCGAAUCGGGGUGGGGAAAAAAAGGGGAAAGGGGAAAGUAUUAUGUUACGCCGUUCGGAUCUGCACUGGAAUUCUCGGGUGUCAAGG	0.539
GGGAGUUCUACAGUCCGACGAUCAGUCCUGUGCUACACAUCGUAUGUACCGAAUCAAAUUUUUAAAUUUAAAUUUUUAAAAAAGUAUUAUGUUACGCCGUUCGGAUCUGCACUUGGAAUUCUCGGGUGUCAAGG	-1.78
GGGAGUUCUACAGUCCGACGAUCUCAAGUCCUGUGCUACACAUCGUAUGUACCGAAUCGGUUUUUGGUUUGGAAAGGAAAGUAUUAUGUUACGCCGUUCGGAUCUGCACUUCCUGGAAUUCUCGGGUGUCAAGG	-1.19
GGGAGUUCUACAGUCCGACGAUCUGGCCCUGGAGGCAUGCGGGGAGGAAGAGGUGGCCUCAUGGAUCGUGGUGGUCCCGGUGGAAUGUUCAGAGGUGGCCGUGGUGGAGACAGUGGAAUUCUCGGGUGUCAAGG	0.105
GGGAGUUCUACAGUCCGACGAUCUCCUCAAGUCCUGUGCUACACAUCGUAUGUACCGAAUCGGCGGCGGGGCGGGAAAGUAUUAUGUUACGCCGUUCGGAUCUGCACUUCCAGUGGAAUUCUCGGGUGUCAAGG	0.307
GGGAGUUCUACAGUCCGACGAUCGUCCUGUGCUACACAUCGUAUGUACCGAAUCAAAUUUUUAAAUUUAAACCCCCCCAAAAAAGUAUUAUGUUACGCCGUUCGGAUCUGCACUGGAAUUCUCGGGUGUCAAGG	0.0575

Excerpt of the above (study 3):
Oligonucleotide	E-score
CCGGGGTC	0.297
GTCGGTCA	0.27
ATACATCG	0.299
